# Measurements gathered from unrelated publications.
# Lines come from different studies, so protocols differ. ± marks the error that the study gave.
SMILES,assay,test system,conditions,scale,endpoint,value
Cc1cc(-c2ccc3ccccc3c2)nnc1NCCN1CCN(C)CC1,metabolic stability,"human, liver microsomes",20 min,,compound remaining,103%
C#Cc1c(F)ccc2cc(O)cc(-c3ncc4c(N5CC6CCC(C5)N6C(=O)OC(C)OC(=O)c5ccccc5)nc(OC[C@@]56CCCN5C[C@H](F)C6)nc4c3F)c12 (stereo partly shown),item: prodrug,mouse whole blood,1 µM,,t1/2,10.8 min
C/C(=N\OCCCN1CCCCC1)c1ccc(C(F)(F)F)cc1,,"mouse, plasma","oral, 100 mg/kg once daily, day 1",,AUC(0-t),25300 ± 8520 ng·h/mL
CC(CCC(=O)NCC(=O)O)C1CCC2C3C(O)CC4CC(OC5OC(C(=O)O)C(O)C(O)C5O)CCC4(C)C3CCC12C (stereo not shown),,"men, T/T genotype, plasma","dose not given, geometric mean",,glucuronide to parent ratio,0.084
CSCC[C@H](N)C(=O)N[C@@H](C)C(=O)N[C@@H](CCCNC(=N)N)C(=O)N[C@@H](CCCNC(=N)N)C(=O)N[C@@H](CC(=O)O)C(=O)N[C@@H](CCCCN)C(=O)N[C@H](C(=O)N[C@@H](CC(=O)O)C(=O)N[C@@H](Cc1ccccc1)C(=O)N[C@@H](C)C(=O)N[C@@H](CCCNC(=N)N)C(=O)N[C@@H](CCCNC(=N)N)C(=O)N[C@@H](CCCNC(=N)N)C(=O)N[C@@H](CCCNC(=N)N)C(=O)NCCCCCC(=O)NCCCCC(NC(=O)CCCCCNC(=O)[C@H](CCCNC(=N)N)NC(=O)[C@H](CCCNC(=N)N)NC(=O)[C@H](CCCNC(=N)N)NC(=O)[C@H](CCCNC(=N)N)NC(=O)[C@H](C)NC(=O)[C@H](Cc1ccccc1)NC(=O)[C@H](CC(=O)O)NC(=O)[C@@H](NC(=O)[C@H](CCCCN)NC(=O)[C@H](CC(=O)O)NC(=O)[C@H](CCCNC(=N)N)NC(=O)[C@H](CCCNC(=N)N)NC(=O)[C@H](C)NC(=O)[C@@H](N)CCSC)[C@@H](C)O)C(=O)NCCCCC(NC(=O)C(CCCCNC(=O)CCCCCNC(=O)[C@H](CCCNC(=N)N)NC(=O)[C@H](CCCNC(=N)N)NC(=O)[C@H](CCCNC(=N)N)NC(=O)[C@H](CCCNC(=N)N)NC(=O)[C@H](C)NC(=O)[C@H](Cc1ccccc1)NC(=O)[C@H](CC(=O)O)NC(=O)[C@@H](NC(=O)[C@H](CCCCN)NC(=O)[C@H](CC(=O)O)NC(=O)[C@H](CCCNC(=N)N)NC(=O)[C@H](CCCNC(=N)N)NC(=O)[C@H](C)NC(=O)[C@@H](N)CCSC)[C@@H](C)O)NC(=O)CCCCCNC(=O)[C@H](CCCNC(=N)N)NC(=O)[C@H](CCCNC(=N)N)NC(=O)[C@H](CCCNC(=N)N)NC(=O)[C@H](CCCNC(=N)N)NC(=O)[C@H](C)NC(=O)[C@H](Cc1ccccc1)NC(=O)[C@H](CC(=O)O)NC(=O)[C@@H](NC(=O)[C@H](CCCCN)NC(=O)[C@H](CC(=O)O)NC(=O)[C@H](CCCNC(=N)N)NC(=O)[C@H](CCCNC(=N)N)NC(=O)[C@H](C)NC(=O)[C@@H](N)CCSC)[C@@H](C)O)C(N)=O)[C@@H](C)O (stereo partly shown),,"C57BL/6 mouse female, spleen","dose not given, 6 h",baseline: total,mean tissue distribution,1.19%
CCCCCCCCCCCCCCCC(=O)N[C@@H](CCC(=O)NCCOCCOCCC(=O)NCCOCCOCCC(=O)NCCCC[C@H](NC(=O)[C@H](CC(=O)O)NC(=O)[C@H](CC(C)C)NC(=O)[C@H](Cc1ccc(O)cc1)NC(=O)[C@H](CCCCN)NC(=O)[C@H](CO)NC(=O)[C@H](Cc1ccc(O)cc1)NC(=O)[C@H](CC(=O)O)NC(=O)[C@H](CO)NC(=O)[C@@H](NC(=O)[C@H](Cc1ccccc1)NC(=O)[C@@H](NC(=O)CNC(=O)[C@H](CCC(N)=O)NC(=O)[C@@H](CO)NC(=O)[C@@H](N)Cc1c[nH]cn1)[C@@H](C)O)[C@@H](C)O)C(=O)N[C@@H](CCCNC(=N)N)C(=O)N[C@@H](CCCNC(=N)N)C(=O)N[C@@H](C)C(=O)N[C@@H](CCC(N)=O)C(=O)N[C@@H](CC(=O)O)C(=O)N[C@@H](Cc1ccccc1)C(=O)N[C@H](C(=O)N[C@@H](CCC(N)=O)C(=O)N[C@@H](Cc1c[nH]c2ccccc12)C(=O)N[C@@H](CC(C)C)C(=O)N[C@@H](CC(C)C)C(=O)N[C@@H](CC(N)=O)C(=O)N[C@H](C(=O)NCC(=O)NCC(=O)N1CCC[C@H]1C(=O)N[C@@H](CO)C(=O)N[C@@H](CO)C(=O)NCC(=O)N[C@@H](C)C(=O)N1CCC[C@H]1C(=O)N1CCC[C@H]1C(=O)N1CCC[C@H]1C(=O)N[C@@H](CO)C(N)=O)[C@@H](C)O)C(C)C)C(=O)O,item: ALT,"Sprague-Dawley rat, male","subcutaneous, 100 µg/kg once daily, 14 days",,serum enzyme activity,45 ± 17.3 U/L
CC[C@H](C)[C@H](NC(=O)[C@@H](NC(=O)c1cccc(Cl)c1Cl)C(C)(C)C)C(=O)N[C@H](C(=O)N[C@H](C(=O)N[C@H](C(=O)N[C@@H](CCC(N)=O)C(=O)N[C@@H](Cc1c[nH]cn1)C(=O)N[C@H](CC(C)C)C(=O)N[C@@H](CO)C(=O)NCCC(=O)N[C@@H](CCCCNC(=O)CC[C@@H]1NC(=O)[C@@H](CCCNC(=N)N)NC(=O)[C@H](CCCNC(=N)N)NC(=O)[C@@H](CCCNC(=N)N)NC(=O)[C@H](CCCNC(=N)N)NC(=O)[C@H](Cc2ccc3ccccc3c2)NC(=O)[C@@H](Cc2ccccc2)NC1=O)C(N)=O)[C@@H](C)O)[C@@H](C)CC)C(C)(C)C,turbidity,PBS with 5% DMSO,"1 h, pH 7.4, up to 100 µM tested",,aqueous solubility,≥ 100 µM
CC[C@H](C)[C@H](NC(=O)[C@H](CCCCN)NC(=O)CNC(=O)[C@H](CC(C)C)NC(=O)[C@H](Cc1ccccc1)NC(=O)[C@H](CCCCN)NC(=O)[C@H](CO)NC(=O)[C@H](Cc1ccccc1)NC(=O)[C@H](Cc1c[nH]c2ccccc12)NC(=O)[C@H](CCC(N)=O)NC(=O)[C@@H](NC(=O)[C@H](Cc1ccccc1)NC(=O)CCCCCNC(=O)CN1CCN(CC(=O)O)CCN(CC(=O)O)CCN(CC(=O)O)CC1)C(C)C)C(=O)N[C@@H](CCC(=O)O)C(=O)N1CCC[C@H]1C(=O)N[C@@H](CC(=O)O)C(=O)N[C@H](C(=O)N[C@@H](CO)C(=O)N[C@@H](CCC(N)=O)C(=O)N[C@H](C(=O)N[C@@H](CCC(N)=O)C(=O)N[C@@H](CC(=O)O)C(=O)N1CCC[C@H]1C(=O)N[C@@H](CC(N)=O)C(=O)N[C@@H](CC(=O)O)C(=O)N[C@@H](CCC(N)=O)C(=O)N[C@@H](Cc1ccc(O)cc1)C(=O)N[C@@H](CCC(=O)O)C(=O)N1CCC[C@H]1C(=O)N[C@@H](Cc1ccccc1)C(=O)O)C(C)C)C(C)C [copper-64 labelled],,"C57BL/6 mice, male, tumour-free, pancreas",24 h,,tissue uptake,1.54 ± 0.08 %ID/g
CC(C)[C@H](NC(=O)[C@H](Cc1c[nH]c2ccccc12)NC(=O)[C@H](CCCNC(=N)N)NC(=O)[C@H](CCCNC(=N)N)NC(=O)[C@@H](NC(=O)[C@@H](NC(=O)[C@H](CCCNC(=N)N)NC(=O)[C@@H](NC(=O)[C@@H](NC(=O)[C@H](CCCNC(=N)N)NC(=O)[C@H](CCCNC(=N)N)NC(=O)[C@@H](NC(=O)[C@H](Cc1c[nH]c2ccccc12)NC(=O)[C@H](CCCNC(=N)N)NC(=O)[C@H](CCCNC(=N)N)NC(=O)[C@@H](NC(=O)[C@H](CCCNC(=N)N)NC(=O)[C@H](CCCNC(=N)N)NC(=O)[C@@H](NC(=O)[C@H](Cc1c[nH]c2ccccc12)NC(=O)[C@H](CCCNC(=N)N)NC(=O)[C@@H](N)CCCNC(=N)N)C(C)C)C(C)C)C(C)C)C(C)C)C(C)C)C(C)C)C(C)C)C(=O)N[C@@H](CCCNC(=N)N)C(=O)N[C@@H](CCCNC(=N)N)C(=O)O,,CD-1 mice,,baseline: dose,dose in tissues and carcass,~50%
CN1Cc2cc(Cl)ccc2-n2c(nnc2C2CCN(c3cccc([18F])n3)CC2)C1,PET two-tissue compartment model,"rhesus monkey, cerebellum","intravenous, dose not given, 60 min scan, baseline scan",,total volume of distribution,0.82 ± 0.29 mL/cm3
O=C1NC2(CC2)COc2ncc(F)cc2[C@H]2COCCN2c2ccn3ncc1c3n2,,"Sprague-Dawley rat, male, heart","oral, 20 mg/kg/day, 4 weeks",,organ weight,1.86 ± 0.378 g
COc1ccc(CNc2ccc3c(c2)S(=O)(=O)C=C3)cc1,,"male C57BL/6 mice, blood","intraperitoneal, 20 mg/kg, day 8, group average",,plateletcrit,4.74 mL/L
CC(=O)NCCCC[C@@H]1NC(=O)[C@H](Cc2c[nH]c3c(C)cccc23)NC(=O)[C@H]([C@@H](C)O)NC(=O)[C@H](CC(N)=O)NC(=O)[C@@H](NC(C)=O)C(C)(C)SSC(C)(C)[C@@H](C(=O)N[C@@H](Cc2ccc(OCCN)cc2)C(=O)N[C@@H](Cc2ccc3ccccc3c2)C(=O)NC2(C(=O)N[C@@H](CCC(=O)O)C(=O)N[C@@H](CC(N)=O)C(=O)N[C@@H](Cc3cccnc3)C(=O)N(C)CC(N)=O)CCOCC2)NC1=O,equilibrium dialysis,"rabbit, plasma",0.1 µM,,plasma protein binding,71.9 ± 0.9%

# Excerpt of the above:
SMILES,assay,test system,conditions,scale,endpoint,value
Cc1cc(-c2ccc3ccccc3c2)nnc1NCCN1CCN(C)CC1,metabolic stability,"human, liver microsomes",20 min,,compound remaining,103%
